Measurements of several laboratories.
A part holds a random share of what one study measured. Substitutions count along the parent as printed.
Chain of UniProt P10721 (whole entry, unmodified, looked up): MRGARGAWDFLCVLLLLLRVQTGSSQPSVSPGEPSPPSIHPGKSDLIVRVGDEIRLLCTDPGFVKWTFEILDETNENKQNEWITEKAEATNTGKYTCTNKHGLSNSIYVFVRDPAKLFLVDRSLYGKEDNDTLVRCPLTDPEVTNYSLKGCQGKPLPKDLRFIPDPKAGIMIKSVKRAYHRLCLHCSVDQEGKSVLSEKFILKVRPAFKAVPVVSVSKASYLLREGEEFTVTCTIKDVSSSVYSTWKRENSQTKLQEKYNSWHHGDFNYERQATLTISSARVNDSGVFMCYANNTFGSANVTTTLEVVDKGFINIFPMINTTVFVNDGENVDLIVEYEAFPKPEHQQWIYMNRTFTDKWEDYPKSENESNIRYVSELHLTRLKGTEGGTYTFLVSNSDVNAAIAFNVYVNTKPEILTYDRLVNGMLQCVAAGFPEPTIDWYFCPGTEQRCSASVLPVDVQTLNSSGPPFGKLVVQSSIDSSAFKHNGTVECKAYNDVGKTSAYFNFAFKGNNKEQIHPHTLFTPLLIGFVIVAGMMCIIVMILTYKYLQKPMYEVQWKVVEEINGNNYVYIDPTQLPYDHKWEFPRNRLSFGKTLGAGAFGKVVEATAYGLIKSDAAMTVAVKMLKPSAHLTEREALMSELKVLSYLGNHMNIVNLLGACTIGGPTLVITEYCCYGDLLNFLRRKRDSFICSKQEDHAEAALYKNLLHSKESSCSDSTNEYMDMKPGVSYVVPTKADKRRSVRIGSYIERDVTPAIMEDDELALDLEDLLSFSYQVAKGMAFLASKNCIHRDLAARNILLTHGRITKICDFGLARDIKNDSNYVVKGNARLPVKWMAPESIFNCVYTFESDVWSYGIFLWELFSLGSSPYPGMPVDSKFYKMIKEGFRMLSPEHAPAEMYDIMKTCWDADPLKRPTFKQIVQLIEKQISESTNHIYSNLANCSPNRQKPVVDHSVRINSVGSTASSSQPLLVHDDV
Chain of UniProt P51955 (whole entry, looked up): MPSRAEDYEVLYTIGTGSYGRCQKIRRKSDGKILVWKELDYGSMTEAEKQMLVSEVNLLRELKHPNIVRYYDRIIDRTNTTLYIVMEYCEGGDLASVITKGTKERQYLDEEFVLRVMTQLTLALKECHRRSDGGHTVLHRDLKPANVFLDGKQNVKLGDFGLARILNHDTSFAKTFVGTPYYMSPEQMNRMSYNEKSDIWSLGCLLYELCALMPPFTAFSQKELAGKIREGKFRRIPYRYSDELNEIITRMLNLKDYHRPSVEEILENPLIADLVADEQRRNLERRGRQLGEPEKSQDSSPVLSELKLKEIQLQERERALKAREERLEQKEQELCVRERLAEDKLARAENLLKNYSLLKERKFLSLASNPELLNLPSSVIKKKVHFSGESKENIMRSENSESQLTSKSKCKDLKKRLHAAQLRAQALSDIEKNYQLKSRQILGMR
Chain of UniProt Q14164 (whole entry, looked up): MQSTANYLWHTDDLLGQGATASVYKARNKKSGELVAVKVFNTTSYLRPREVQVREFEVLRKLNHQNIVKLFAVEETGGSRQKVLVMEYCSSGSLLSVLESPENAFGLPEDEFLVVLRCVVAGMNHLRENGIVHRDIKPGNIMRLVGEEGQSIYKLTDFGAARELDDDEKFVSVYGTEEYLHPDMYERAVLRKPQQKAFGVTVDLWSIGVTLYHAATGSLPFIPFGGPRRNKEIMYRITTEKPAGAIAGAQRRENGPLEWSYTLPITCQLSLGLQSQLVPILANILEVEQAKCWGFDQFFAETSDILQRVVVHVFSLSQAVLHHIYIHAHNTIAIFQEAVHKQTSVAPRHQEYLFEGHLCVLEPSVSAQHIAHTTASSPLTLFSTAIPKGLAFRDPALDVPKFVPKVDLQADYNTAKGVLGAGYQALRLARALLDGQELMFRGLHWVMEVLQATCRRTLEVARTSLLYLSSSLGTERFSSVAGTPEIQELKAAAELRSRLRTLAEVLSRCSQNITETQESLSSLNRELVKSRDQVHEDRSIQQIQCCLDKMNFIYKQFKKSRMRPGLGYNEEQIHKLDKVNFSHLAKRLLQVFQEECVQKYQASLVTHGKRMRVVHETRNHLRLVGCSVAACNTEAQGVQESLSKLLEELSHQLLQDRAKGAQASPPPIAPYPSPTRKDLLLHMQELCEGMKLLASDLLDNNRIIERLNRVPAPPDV
Chain of UniProt Q15831 (whole entry, looked up): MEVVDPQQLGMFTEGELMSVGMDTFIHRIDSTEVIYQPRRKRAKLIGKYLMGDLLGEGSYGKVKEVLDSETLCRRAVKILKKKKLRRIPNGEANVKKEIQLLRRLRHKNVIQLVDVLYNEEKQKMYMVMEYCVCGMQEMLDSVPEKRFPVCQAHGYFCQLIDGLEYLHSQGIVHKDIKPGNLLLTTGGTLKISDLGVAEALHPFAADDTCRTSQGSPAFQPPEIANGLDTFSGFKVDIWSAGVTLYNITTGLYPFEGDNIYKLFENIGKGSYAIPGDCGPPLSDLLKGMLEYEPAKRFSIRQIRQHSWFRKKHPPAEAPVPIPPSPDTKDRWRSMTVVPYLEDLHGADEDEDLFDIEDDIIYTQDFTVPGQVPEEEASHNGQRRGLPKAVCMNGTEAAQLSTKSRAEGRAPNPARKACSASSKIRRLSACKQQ
Chain of UniProt P37173 (whole entry, looked up): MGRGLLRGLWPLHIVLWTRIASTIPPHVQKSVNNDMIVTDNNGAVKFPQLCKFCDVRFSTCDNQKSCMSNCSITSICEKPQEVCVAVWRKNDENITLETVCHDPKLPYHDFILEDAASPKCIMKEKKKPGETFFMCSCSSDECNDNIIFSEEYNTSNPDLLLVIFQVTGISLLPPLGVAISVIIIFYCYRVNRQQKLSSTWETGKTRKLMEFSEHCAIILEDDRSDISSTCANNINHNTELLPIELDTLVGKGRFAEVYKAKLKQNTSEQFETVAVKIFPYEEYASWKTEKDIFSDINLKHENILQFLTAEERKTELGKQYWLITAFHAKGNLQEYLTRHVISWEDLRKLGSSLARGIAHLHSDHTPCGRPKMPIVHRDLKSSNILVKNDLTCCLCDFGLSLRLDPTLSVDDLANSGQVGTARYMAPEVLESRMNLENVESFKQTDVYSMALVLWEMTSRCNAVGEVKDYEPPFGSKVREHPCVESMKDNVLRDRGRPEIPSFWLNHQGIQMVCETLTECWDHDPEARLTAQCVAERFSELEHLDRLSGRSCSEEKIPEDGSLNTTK
Chain of UniProt Q96RR4 (whole entry, looked up): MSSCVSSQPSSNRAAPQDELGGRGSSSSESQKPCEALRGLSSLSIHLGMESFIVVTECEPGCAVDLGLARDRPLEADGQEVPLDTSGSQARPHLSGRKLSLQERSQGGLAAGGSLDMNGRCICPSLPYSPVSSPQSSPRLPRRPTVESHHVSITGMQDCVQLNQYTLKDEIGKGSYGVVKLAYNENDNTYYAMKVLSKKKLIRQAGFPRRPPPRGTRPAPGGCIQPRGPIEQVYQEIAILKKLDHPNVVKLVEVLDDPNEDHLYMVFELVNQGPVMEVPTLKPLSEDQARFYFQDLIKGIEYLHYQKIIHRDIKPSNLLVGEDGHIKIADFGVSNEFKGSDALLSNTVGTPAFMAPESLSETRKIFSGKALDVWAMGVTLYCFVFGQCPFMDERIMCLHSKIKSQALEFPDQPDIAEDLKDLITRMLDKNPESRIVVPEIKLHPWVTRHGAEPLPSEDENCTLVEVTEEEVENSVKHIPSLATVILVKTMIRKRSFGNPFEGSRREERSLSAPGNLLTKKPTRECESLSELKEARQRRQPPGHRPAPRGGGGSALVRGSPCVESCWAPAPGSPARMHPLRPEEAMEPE
Chain of UniProt O96017 (whole entry, looked up): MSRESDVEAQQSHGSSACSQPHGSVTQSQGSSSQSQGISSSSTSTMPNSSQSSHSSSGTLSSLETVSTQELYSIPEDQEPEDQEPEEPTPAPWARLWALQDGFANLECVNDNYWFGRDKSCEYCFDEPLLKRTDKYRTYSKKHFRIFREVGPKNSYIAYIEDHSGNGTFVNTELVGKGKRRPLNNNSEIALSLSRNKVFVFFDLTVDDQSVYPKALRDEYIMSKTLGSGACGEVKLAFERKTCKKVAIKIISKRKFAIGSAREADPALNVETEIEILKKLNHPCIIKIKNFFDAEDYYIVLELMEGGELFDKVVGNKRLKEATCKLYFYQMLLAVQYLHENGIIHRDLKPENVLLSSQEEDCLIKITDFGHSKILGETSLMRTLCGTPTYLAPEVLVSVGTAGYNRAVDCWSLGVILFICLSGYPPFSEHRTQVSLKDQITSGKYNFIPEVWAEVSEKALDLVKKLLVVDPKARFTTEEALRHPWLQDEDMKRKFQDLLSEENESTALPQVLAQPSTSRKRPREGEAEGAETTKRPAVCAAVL

Set 1 — read-out: cell-free assay; method: competition with immobilised ligand; concentration: 1 µM
SMILES: NS(=O)(=O)c1cc(NC(=O)C2(c3ccccc3Cl)CC2)ccc1Oc1cccc(Cl)c1
| target | remaining binding [%] |
| --- | --- |
| PRKCE (Homo sapiens, UniProt Q02156) | 65 |
| PDGFRA (Homo sapiens, UniProt P16234) | 81 |
| SLK (Homo sapiens, UniProt Q9H2G2) | 79 |
| MAP3K12 (Homo sapiens, UniProt Q12852) | 100 |
| MARK1 (Homo sapiens, UniProt Q9P0L2) | 83 |
| MUSK (Homo sapiens, UniProt O15146) | 77 |
| Tyrosine-protein kinase ABL1, phosphorylated (ABL1, Homo sapiens, UniProt P00519, H396P) | 93 |
| RIOK1 (Homo sapiens, UniProt Q9BRS2) | 84 |
| DCLK1 (Homo sapiens, UniProt O15075) | 68 |
| KIT (Homo sapiens, UniProt P10721, V559D) | 79 |
| HIPK4 (Homo sapiens, UniProt Q8NE63) | 58 |
| MAP3K20 (Homo sapiens, UniProt Q9NYL2) | 99 |
| EIF2AK1 (Homo sapiens, UniProt Q9BQI3) | 95 |
| Insulin receptor (INSR, Homo sapiens, UniProt P06213) | 100 |
| eIF-2-alpha kinase GCN2, C-terminal kinase domain (EIF2AK4, Homo sapiens, UniProt Q9P2K8, S808G) | 76 |
| Mast/stem cell growth factor receptor Kit, autoinhibited (KIT, Homo sapiens, UniProt P10721) | 79 |
| FGR (Homo sapiens, UniProt P09769) | 54 |
| PRKCQ (Homo sapiens, UniProt Q04759) | 88 |
| ZAP70 (Homo sapiens, UniProt P43403) | 100 |

Set 2 — read-out: enzyme activity; mode: inhibitor; concentration: 0.5 µM; relative to: control
SMILES: O=Nc1c(-c2c(O)[nH]c3ccccc23)[nH]c2ccccc12
| target | remaining activity |
| --- | --- |
| NEK2 (Homo sapiens, UniProt P51955) | 109% |
| Cyclin-dependent kinase 4, with cyclin D1 (CDK4, Homo sapiens, UniProt P11802) | 70.9% |
| DAPK1 (Homo sapiens, UniProt P53355) | 83.2% |
| STK11 (Homo sapiens, UniProt Q15831) | 25.6% |
| Tyrosine-protein kinase Lyn, isoform B (LYN, Homo sapiens, UniProt P07948) | 79.6% |
| PRKCA (Homo sapiens, UniProt P17252) | 97.7% |
| MAP3K3 (Homo sapiens, UniProt Q99759) | 94.4% |
| CAMKK2 (Homo sapiens, UniProt Q96RR4) | 66.8% |
| MAPK9 (Homo sapiens, UniProt P45984) | 65.6% |
| GRK3 (Homo sapiens, UniProt P35626) | 108% |
| STK10 (Homo sapiens, UniProt O94804) | 74% |
| DAPK2 (Homo sapiens, UniProt Q9UIK4) | 110% |
| Protein kinase C beta type, isoform beta-I (PRKCB, Homo sapiens, UniProt P05771) | 94.7% |
| Cyclin-dependent kinase 5, with p25 (CDK5, Homo sapiens, UniProt Q00535) | 28.7% |
| TGFBR2 (Homo sapiens, UniProt P37173) | 113% |
| CAMK2D (Homo sapiens, UniProt Q13557) | 60.4% |
| cGMP-dependent protein kinase 1, isoform beta (PRKG1, Homo sapiens, UniProt Q13976) | 90.1% |
| IKBKE (Homo sapiens, UniProt Q14164) | 75.1% |
| IKBKB (Homo sapiens, UniProt O14920) | 96.1% |
| OXSR1 (Homo sapiens, UniProt O95747) | 91.7% |
| PRKACA (Homo sapiens, UniProt P17612) | 107% |
| CHEK2 (Homo sapiens, UniProt O96017) | 32.3% |
| STK39 (Homo sapiens, UniProt Q9UEW8) | 90.4% |

Set 3 — method: DHFR PCA, deep sequencing; medium: yeast; added: (+)-ABA 0.032 µM; relative to: wild-type fitted maximum; direction: higher = stronger binding
Target: ABI1, truncated, D143A, DHFR fusion (Arabidopsis thaliana)
Notes: methotrexate growth selection, single substitutions
Starting sequence: PYL1, truncated, DHFR fusion (Arabidopsis thaliana); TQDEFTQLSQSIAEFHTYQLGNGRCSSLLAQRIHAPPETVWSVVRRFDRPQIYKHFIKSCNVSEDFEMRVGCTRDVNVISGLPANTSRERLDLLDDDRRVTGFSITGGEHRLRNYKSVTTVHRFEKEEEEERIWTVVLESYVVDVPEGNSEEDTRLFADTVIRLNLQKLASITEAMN
| Substitution | relative binding score [%] |
| --- | --- |
| R132P | 45.8 |
| E127P | 47.2 |
| S11C | 30.3 |
| V145Y | -12.3 |
| R45A | -7.24 |
| R98D | 0.419 |
| G102V | 0.956 |
| L169P | 4.49 |

Set 4 — method: RNAcompete; form: RNA; medium: in vitro; concentration: 20 nM; notes: 7-mer, probes averaged, single round; relative to: mean of 7-mers; direction: higher = stronger binding
Target: PABPC1L2, full length, GST fusion (mouse, UniProt A0ABA7IW68)
Construct (chain): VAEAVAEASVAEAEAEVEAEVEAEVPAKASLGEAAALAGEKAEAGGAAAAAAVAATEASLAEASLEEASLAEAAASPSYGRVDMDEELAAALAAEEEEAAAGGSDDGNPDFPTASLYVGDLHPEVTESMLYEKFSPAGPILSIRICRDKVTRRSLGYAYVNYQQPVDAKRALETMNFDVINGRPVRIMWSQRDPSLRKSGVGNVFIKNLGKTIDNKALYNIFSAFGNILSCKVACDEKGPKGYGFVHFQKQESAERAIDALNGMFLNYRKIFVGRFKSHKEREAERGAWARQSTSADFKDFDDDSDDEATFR
| Oligonucleotide | 7-mer Z-score |
| --- | --- |
| UGCGAAU | -0.115 |
| ACUUUAU | -0.0283 |
| GUGAAGU | -0.228 |
| CAACAGU | -0.11 |
| GCGAAAG | 0.177 |
| AGAAGUG | -0.0355 |
| ACCCUGA | -0.175 |
| UUCGGUC | -0.296 |

A few entries again (set 4):
| Oligonucleotide | 7-mer Z-score |
| --- | --- |
| ACCCUGA | -0.175 |
| GCGAAAG | 0.177 |
| UGCGAAU | -0.115 |
| ACUUUAU | -0.0283 |
